Assay results collected from several papers.
Every numbered part comes from another study and shows a few of its results, in no order. Several values in a cell are separate wells, animals, samples, runs or records.
Sequence of UniProt Q9UHD2 (whole entry, looked up): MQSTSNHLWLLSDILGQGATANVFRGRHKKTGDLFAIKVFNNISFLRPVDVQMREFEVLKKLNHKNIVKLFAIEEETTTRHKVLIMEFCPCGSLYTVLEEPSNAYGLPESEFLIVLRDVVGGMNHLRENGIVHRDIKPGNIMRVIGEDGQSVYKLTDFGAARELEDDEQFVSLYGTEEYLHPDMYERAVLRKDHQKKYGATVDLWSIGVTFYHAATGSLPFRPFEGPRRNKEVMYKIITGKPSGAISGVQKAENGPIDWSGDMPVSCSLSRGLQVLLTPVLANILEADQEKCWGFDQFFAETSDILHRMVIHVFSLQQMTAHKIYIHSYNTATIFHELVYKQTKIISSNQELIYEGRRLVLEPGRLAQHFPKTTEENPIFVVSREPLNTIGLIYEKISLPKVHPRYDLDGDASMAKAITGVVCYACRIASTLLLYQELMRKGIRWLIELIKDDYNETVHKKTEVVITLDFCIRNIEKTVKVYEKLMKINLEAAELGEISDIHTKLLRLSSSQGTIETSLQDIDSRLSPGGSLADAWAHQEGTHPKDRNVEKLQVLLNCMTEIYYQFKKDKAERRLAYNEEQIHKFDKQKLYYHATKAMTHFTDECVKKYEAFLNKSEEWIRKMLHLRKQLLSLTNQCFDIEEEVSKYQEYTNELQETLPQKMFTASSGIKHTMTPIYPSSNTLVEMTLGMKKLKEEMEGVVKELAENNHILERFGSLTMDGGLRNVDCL
Sequence of UniProt Q96SB4 (whole entry, looked up): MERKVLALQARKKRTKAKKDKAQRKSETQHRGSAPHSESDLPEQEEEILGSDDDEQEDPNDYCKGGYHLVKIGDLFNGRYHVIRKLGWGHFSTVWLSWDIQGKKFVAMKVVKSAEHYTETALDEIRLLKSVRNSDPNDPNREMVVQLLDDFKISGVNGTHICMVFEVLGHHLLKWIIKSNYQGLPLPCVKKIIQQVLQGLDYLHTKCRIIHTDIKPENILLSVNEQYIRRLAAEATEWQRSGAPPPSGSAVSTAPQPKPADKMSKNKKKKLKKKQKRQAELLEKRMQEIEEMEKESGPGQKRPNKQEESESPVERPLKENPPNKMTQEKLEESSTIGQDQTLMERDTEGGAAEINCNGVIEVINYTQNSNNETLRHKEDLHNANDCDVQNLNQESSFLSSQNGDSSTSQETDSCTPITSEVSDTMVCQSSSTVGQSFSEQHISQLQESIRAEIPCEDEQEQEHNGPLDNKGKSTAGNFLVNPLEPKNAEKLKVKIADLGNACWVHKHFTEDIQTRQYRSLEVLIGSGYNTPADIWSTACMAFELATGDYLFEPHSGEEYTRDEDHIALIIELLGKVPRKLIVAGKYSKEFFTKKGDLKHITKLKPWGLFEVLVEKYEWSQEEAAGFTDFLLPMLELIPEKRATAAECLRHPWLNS

Study 1
Target: DNA polymerase theta, ATPase domain (POLQ, Homo sapiens, UniProt O75417)
Sequence of UniProt O75417 (whole entry, unmodified, looked up): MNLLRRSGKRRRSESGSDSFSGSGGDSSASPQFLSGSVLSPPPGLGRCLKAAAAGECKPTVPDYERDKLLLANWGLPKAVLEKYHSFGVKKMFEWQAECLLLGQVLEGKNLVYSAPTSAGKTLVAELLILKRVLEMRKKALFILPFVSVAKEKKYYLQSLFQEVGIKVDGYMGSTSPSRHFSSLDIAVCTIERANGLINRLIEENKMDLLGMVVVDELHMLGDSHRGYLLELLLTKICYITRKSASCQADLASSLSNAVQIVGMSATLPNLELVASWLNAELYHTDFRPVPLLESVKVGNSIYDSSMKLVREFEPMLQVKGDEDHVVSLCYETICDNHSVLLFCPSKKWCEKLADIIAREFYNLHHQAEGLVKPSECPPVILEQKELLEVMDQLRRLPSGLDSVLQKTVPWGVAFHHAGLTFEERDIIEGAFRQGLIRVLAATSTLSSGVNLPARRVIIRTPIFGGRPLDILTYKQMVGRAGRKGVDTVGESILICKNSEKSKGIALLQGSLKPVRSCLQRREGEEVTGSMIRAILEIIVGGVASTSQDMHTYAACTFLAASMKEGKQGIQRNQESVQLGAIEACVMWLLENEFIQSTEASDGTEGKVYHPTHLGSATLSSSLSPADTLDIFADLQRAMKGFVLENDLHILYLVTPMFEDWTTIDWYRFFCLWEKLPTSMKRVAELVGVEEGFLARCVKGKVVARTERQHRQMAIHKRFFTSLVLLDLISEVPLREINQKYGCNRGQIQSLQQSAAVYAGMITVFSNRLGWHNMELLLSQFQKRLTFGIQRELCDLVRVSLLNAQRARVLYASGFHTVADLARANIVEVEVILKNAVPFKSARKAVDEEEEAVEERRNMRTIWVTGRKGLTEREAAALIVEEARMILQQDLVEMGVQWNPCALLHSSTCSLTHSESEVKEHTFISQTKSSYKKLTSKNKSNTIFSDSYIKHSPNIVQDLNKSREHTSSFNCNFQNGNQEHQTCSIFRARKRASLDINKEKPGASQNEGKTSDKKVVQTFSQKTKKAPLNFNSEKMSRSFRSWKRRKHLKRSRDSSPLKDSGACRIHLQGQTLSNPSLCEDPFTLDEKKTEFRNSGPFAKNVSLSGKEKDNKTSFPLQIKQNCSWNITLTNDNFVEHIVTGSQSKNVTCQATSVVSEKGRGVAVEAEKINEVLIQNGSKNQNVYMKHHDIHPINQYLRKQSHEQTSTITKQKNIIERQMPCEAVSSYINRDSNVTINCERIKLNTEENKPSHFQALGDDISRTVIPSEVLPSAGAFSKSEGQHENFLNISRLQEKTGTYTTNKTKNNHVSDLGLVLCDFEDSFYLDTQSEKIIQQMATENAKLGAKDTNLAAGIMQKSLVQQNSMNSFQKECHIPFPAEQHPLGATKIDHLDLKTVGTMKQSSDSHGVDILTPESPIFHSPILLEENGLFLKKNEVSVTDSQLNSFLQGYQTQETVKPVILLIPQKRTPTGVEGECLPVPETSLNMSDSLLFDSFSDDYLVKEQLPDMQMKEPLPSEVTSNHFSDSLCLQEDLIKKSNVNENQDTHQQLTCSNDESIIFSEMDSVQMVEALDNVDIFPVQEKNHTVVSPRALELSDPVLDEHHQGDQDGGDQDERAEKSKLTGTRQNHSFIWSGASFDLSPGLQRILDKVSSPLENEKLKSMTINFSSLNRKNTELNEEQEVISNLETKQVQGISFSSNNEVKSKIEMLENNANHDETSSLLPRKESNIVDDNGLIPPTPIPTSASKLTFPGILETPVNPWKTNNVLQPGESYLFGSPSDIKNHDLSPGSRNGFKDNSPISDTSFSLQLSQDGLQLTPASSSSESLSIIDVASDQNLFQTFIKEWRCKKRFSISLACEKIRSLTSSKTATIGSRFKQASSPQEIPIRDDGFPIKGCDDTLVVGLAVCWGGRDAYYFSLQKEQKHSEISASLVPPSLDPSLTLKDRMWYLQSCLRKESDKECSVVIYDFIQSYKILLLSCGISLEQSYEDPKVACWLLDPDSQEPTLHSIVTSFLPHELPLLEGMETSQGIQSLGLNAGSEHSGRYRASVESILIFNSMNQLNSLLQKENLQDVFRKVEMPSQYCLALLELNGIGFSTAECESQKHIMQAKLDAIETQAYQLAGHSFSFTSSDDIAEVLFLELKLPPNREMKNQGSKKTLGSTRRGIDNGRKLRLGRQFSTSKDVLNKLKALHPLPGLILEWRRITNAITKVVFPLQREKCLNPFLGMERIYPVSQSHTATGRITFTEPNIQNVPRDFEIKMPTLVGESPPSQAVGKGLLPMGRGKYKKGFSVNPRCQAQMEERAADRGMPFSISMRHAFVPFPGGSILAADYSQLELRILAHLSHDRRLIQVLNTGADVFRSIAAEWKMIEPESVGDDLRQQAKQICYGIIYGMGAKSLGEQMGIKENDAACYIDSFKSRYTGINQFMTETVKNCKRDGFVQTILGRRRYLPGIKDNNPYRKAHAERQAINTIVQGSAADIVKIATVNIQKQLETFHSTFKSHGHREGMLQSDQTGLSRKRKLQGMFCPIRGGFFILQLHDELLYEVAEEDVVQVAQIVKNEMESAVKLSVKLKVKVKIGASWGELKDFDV
Read-out: enzyme activity
Mode: inhibitor
Tested at: 77 µM
Baseline: untreated
Measurement: remaining activity
COC(=O)N[C@H](C(=O)N[C@@H](Cc1ccccc1)[C@@H](O)CN(Cc1ccc(-c2ccccn2)cc1)NC(=O)[C@@H](NC(=O)OC)C(C)(C)C)C(C)(C)C: 101%
CN(C)C(=O)Oc1cccc([N+](C)(C)C)c1: 100% and 107%
COCc1nc2c([nH]1)c(=O)n(C)c(=O)n2CC(C)C: 102%
C[C@H](NCc1ccc(OCc2cccc(F)c2)cc1)C(N)=O: 97.6%
COc1cc2c(c(OC)c1OC)-c1c(cc3c(c1OC)OCO3)C[C@@H](C)[C@@H](C)C2: 98.2%
OC[C@H]1OC(O)[C@H](O)[C@@H](O)[C@@H]1O (some centres unmarked): 95.9%
S=C(S)N1CCCC1: 90.8%
CC(=O)C1=C(O)C=C2Oc3c(C(C)=O)c(O)c(C)c(O)c3C2(C)C1=O (single isomer, unassigned; (+)): 104%
CC(COc1ccccc1)NC(C)C(O)c1ccc(O)cc1 (centres unmarked): 99.1%
O=c1[nH][nH]c2nnc(-c3c(-c4ccccc4)nn4ccccc34)cc12: 103%
COC(=O)N[C@H](C(=O)N1CCC[C@H]1c1ncc(-c2ccc(-c3ccc(-c4cnc([C@@H]5CCCN5C(=O)[C@@H](NC(=O)OC)C(C)C)[nH]4)cc3)cc2)[nH]1)C(C)C: 102%
CNC(=O)[C@H](Cc1c[nH]c2ccccc12)NC(=O)[C@@H](CC(=O)NO)CC(C)C: 99.1%
CN(C(=O)CCCOc1ccc2[nH]c(=O)ccc2c1)C1CCCCC1: 104%
Clc1ccc(C(c2ccc(Cl)cc2)[n+]2ccn(CC(OCc3ccc(Cl)cc3Cl)c3ccc(Cl)cc3Cl)c2)cc1 (centres unmarked): 97.2%
N#Cc1ccc2[nH]cc(CCCCN3CCN(c4ccc5oc(C(N)=O)cc5c4)CC3)c2c1: 103%
CN(C/C=C/c1ccccc1)Cc1cccc2ccccc12: 102%
CCC(C)n1ncn(-c2ccc(N3CCN(c4ccc(OC[C@H]5CO[C@](Cn6cncn6)(c6ccc(Cl)cc6Cl)O5)cc4)CC3)cc2)c1=O (mixture of isomers): 90.5%
O=C(Nc1ccccc1)c1ccccc1O: 91.2%

Study 2
Target: Platelet-derived growth factor receptor beta (PDGFRB, Homo sapiens, UniProt P09619)
Sequence of UniProt P09619 (whole entry, looked up): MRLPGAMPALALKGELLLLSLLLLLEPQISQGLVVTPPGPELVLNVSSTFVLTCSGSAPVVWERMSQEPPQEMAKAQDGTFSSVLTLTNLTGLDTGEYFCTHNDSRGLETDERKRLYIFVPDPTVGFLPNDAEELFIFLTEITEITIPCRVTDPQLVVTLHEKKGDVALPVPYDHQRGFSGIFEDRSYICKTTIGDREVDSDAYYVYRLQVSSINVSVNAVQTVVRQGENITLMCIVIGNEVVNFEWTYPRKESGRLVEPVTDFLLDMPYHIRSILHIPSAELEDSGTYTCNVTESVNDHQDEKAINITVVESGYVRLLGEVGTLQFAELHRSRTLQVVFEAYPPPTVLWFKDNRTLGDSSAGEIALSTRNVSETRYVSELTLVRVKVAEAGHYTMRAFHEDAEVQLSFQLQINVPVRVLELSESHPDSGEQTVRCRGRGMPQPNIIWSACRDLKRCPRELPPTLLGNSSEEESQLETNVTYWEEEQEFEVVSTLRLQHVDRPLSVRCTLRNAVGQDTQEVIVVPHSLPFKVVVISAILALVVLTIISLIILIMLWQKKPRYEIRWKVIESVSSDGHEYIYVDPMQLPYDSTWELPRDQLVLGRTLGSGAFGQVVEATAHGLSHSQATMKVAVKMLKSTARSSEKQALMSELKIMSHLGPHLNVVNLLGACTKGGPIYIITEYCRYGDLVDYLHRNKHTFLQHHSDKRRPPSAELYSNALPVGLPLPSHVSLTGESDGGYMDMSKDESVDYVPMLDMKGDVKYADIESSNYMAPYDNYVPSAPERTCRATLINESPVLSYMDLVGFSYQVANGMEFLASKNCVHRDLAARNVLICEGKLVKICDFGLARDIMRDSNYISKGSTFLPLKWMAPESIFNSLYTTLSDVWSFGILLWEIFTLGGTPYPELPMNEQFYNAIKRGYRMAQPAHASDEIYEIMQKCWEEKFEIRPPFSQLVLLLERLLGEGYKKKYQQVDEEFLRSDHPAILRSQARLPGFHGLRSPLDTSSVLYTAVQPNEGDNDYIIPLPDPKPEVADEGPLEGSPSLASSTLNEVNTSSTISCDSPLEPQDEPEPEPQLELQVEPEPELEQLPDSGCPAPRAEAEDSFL
Read-out: enzyme activity
Mode: inhibitor
Tested at: 0.5 µM
Baseline: control
Measurement: remaining activity
N#Cc1c(NC(=O)c2cccc3ccccc23)sc2c1CCCC2: 98.9%
N#C/C(=C\c1ccc(O)c(O)c1)C(=O)NCc1ccccc1: 100%
CCN(CC)C(=O)c1ccc(Nc2nc(OCC3CCCCC3)c3[nH]cnc3n2)cc1: 54.6%
O=C(NC(NC(=S)Nc1ccc(F)c([N+](=O)[O-])c1)C(Cl)(Cl)Cl)C(c1ccccc1)c1ccccc1 (centres unmarked): 105%
Nc1cccc(-c2cc3c(Oc4cccc(O)c4)ncnc3[nH]2)c1: 39.9%
c1ccc(-c2[nH]ncc2-c2ccnc3ccccc23)nc1: 106%
O=C1C(Cl)=C(N2C(=O)CCC2=O)C(=O)c2ccccc21: 103%
COc1cc2ncnc(Nc3ccc(O)c(Br)c3)c2cc1OC: 93.7%
Cc1cn(-c2cc(NC(=O)c3ccc(C)c(Nc4nccc(-c5cccnc5)n4)c3)cc(C(F)(F)F)c2)cn1: 28.4%
CN(C)C[C@H]1CCn2c(c(C3=C(c4cn(C)c5ccccc45)C(=O)NC3=O)c3ccccc32)C1: 102%
CN([C@@H](Cc1ccc(OS(=O)(=O)c2cccc3cnccc23)cc1)C(=O)N1CCN(c2ccccc2)CC1)S(=O)(=O)c1cccc2cnccc12: 104%
O=C(Nc1cccc(Nc2nccc(Nc3cccc(C(F)(F)F)c3)n2)c1)C1CC1: 101%
COc1cc2ncnc(Nc3cccc(Cl)c3)c2cc1OC: 100%
Cc1cc2ncc(-c3ccccc3)nc2cc1C: 89.1%
Cc1nc2cc3nc(-c4cccs4)cnc3cc2n1C: 63.3%
CCOc1nc(NC(=O)Cc2cc(OC)ccc2OC)cc(N)c1C#N: 104%
c1ccc(-c2cnc(Nc3ccc(OCCN4CCCC4)cc3)s2)cc1: 28.5%
Cn1nc2c3c(cccc31)C(=O)c1ccccc1-2: 100%
Ic1cccc(CSc2nnc(-c3ccncc3)o2)c1: 97.7%

Study 3
SMILES: CCC(=O)N[C@@H]1CC[C@H](C(=O)N(C)c2ccc(-c3nc4ccccc4o3)cc2)C1
Read-out: cell-free assay
Method: competition with immobilised ligand
Tested at: 1 µM
Measurement: remaining binding
ROCK1 (Homo sapiens, UniProt Q13464): 100%
PIK3CG (Homo sapiens, UniProt P48736): 75%
SRPK1 (Homo sapiens, UniProt Q96SB4): 100%
TBK1 (Homo sapiens, UniProt Q9UHD2): 65%
MUSK (Homo sapiens, UniProt O15146): 100%
TAOK2 (Homo sapiens, UniProt Q9UL54): 89%
CSNK2A1 (Homo sapiens, UniProt P68400): 98%
HIPK3 (Homo sapiens, UniProt Q9H422): 76%
MAP3K3 (Homo sapiens, UniProt Q99759): 96%
RIPK4 (Homo sapiens, UniProt P57078): 72%
MAK (Homo sapiens, UniProt P20794): 100%
DCLK2 (Homo sapiens, UniProt Q8N568): 89%
NEK2 (Homo sapiens, UniProt P51955): 100%
CILK1 (Homo sapiens, UniProt Q9UPZ9): 92%
MAPK4 (Homo sapiens, UniProt P31152): 100%
STK38 (Homo sapiens, UniProt Q15208): 80%
TEC (Homo sapiens, UniProt P42680): 100%
ZAP70 (Homo sapiens, UniProt P43403): 100%
GSK3A (Homo sapiens, UniProt P49840): 84%
TGFBR1 (Homo sapiens, UniProt P36897): 95%
EGFR (Homo sapiens, UniProt P00533, L858R/T790M): 100%
IRAK3 (Homo sapiens, UniProt Q9Y616): 100%
WNK4 (Homo sapiens, UniProt Q96J92): 100%
FLT3 (Homo sapiens, UniProt P36888, ITD): 100%
RIOK1 (Homo sapiens, UniProt Q9BRS2): 100%

Study 4
Compound: COc1ccc2[nH]c3c4[nH]c5ccc(OC)cc5c4c4c(c3c2c1)C(=O)NC4=O
Tested at: 1 µM
Measurement: remaining binding
Aurora kinase C (AURKC, Homo sapiens, UniProt Q9UQB9); competitive binding panel; baseline: vehicle: 17%
PIKFYVE (Homo sapiens, UniProt Q9Y2I7); competitive binding panel; baseline: vehicle: 0%
MAP3K9 (Homo sapiens, UniProt P80192); competitive binding panel, refers to: MLK1; baseline: vehicle: 2.2%
CHEK1 (Homo sapiens, UniProt O14757); competitive binding panel; baseline: vehicle: 12%
KIT (Homo sapiens, UniProt P10721, T670I/V559D); competitive binding panel; baseline: vehicle: 49%
MAP2K2 (Homo sapiens, UniProt P36507); competitive binding panel, refers to: MEK2; baseline: vehicle: 59%
HASPIN (Homo sapiens, UniProt Q8TF76); competitive binding panel; baseline: vehicle: 76%
TESK1 (Homo sapiens, UniProt Q15569); competitive binding panel; baseline: vehicle: 90%
STK3 (Homo sapiens, UniProt Q13188); competitive binding panel, refers to: MST2; baseline: vehicle: 82%
FES (Homo sapiens, UniProt P07332); competitive binding panel; baseline: vehicle: 86%
MAST1 (Homo sapiens, UniProt Q9Y2H9); competitive binding panel; baseline: vehicle: 45%
PAK3 (Homo sapiens, UniProt O75914); competitive binding panel; baseline: vehicle: 4.2%
EPHB6 (Homo sapiens, UniProt O15197); competitive binding panel; baseline: vehicle: 7.3%
Myosin-IIIb (MYO3B, Homo sapiens, UniProt Q8WXR4); competitive binding panel; baseline: vehicle: 100%
MATK (Homo sapiens, UniProt P42679); competitive binding; CTK: 93%
